Experimental data pooled from the literature.
Compare with care: the assays were run in different laboratories. Values joined by “and” are separate records of one study, mostly repeats; a detail may differ.
Target: cAMP-dependent protein kinase catalytic subunit alpha (PRKACA, Homo sapiens, UniProt P17612)

Structure (SMILES) = CS(C)(=O)=Nc1ccc(-c2ccc(-c3nc4cc(O[C@@H]5CO[C@H]6[C@@H]5OC[C@H]6O)[nH]c4cc3F)cc2)cc1; test = enzyme activity, inhibitor; conditions = 10 µM; measurement = inhibition; result = -9%
Structure (SMILES) = O=C(O)c1ccccc1/C=N/Nc1nc(-c2ccccc2Cl)cs1; test = enzyme activity, inhibitor; conditions = 1 µM; measurement = inhibition; result = -0.94%
Structure (SMILES) = CC(C)[C@H]1NC(=O)C[C@H]2/C=C/CCSSC[C@@H](NC1=O)C(=O)N[C@H](Cc1cccc3ccccc13)C(=O)NCC(=O)O2; test = enzyme activity, inhibitor; conditions = 10 µM; measurement = inhibition; result = -3.3%
Structure (SMILES) = CCOC(=O)[C@@H]1Cc2c(cc([N+](=O)[O-])cc2[N+](=O)[O-])[C@H](O)[C@]12C(=O)Nc1ccc(Br)cc12; test = binding, competition with immobilised ligand; conditions = 0.1 µM; measurement = remaining binding; result = 100%
Structure (SMILES) = Nc1ccc(/C=C/C(=O)N2CCc3c(oc4c(-c5ccc(F)cc5)cc(-c5ccc(C(=O)N6CCC(F)(F)CC6)cn5)cc34)C2)cn1; test = binding, competition with immobilised ligand; conditions = 1 µM; measurement = remaining binding; result = 100%
Structure (SMILES) = N[C@H](C(=O)N1CCCC1)C1CCN(c2nccc3c(-c4ncc(Cl)cc4Cl)cccc23)CC1; test = kinase activity, inhibitor; conditions = 10 µM, added: ATP 1 mM; measurement = inhibition; result = 7.1%
Structure (SMILES) = O=C(N[C@@H]1c2ccccc2C[C@H]1N1CCCC1)c1ccc(-c2ccnc3[nH]ccc23)nc1; test = binding, competition with immobilised ligand; conditions = 3 µM; measurement = remaining binding; result = 0.4%
Structure (SMILES) = [CH3][Ti+2][O]C(=O)c1ccc([S][Au][PH](c2ccccc2)(c2ccccc2)c2ccccc2)cc1.c1cc[cH-]c1.c1cc[cH-]c1; test = kinase activity, HotSpot kinase; conditions = 1 µM, added: ATP 10 µM; measurement = remaining activity; result = 93.4% and 92.5%
Structure (SMILES) = C[C@H](NCc1ccc(-c2ccc(C(F)(F)F)cc2)cc1)C(N)=O; test = cell-free assay, competition with immobilised ligand; conditions = 1 µM; measurement = inhibition; result = 21%
Structure (SMILES) = O=C1NC(=O)c2c1c1cc(F)c[n+]3c1c1c2c2cc(O)ccc2[n]1[Ru-4]312([N]=C=S)[S+]3CC[S+]1CC[S+]2CC3 (stereo not shown); test = enzyme activity; conditions = 100 nM, human enzyme, added: 10 µM ATP; scale = reference: untreated; measurement = remaining activity; result = 13%

For quick reference, copied from above:
Structure (SMILES) = CC(C)[C@H]1NC(=O)C[C@H]2/C=C/CCSSC[C@@H](NC1=O)C(=O)N[C@H](Cc1cccc3ccccc13)C(=O)NCC(=O)O2; test = enzyme activity, inhibitor; conditions = 10 µM; measurement = inhibition; result = -3.3%
